{"data": "Results gathered from unrelated publications", "note": "“And” joins repeats or separate records; there may be more than shown."}
{"Structure (SMILES)": "Cc1cc(-c2ccc3ccccc3c2)nnc1NCCN1CCN(C)CC1", "system": "rat liver microsomes", "conditions": "60 min", "endpoint": "remaining compound", "value": "65.4%"}
{"Structure (SMILES)": "C[C@H](NC(=O)CNC(=O)[C@@H]1CCCN1C(=O)[C@H](CO)NC(=O)CNC(=O)[C@H](CO)NC(=O)[C@H](C)NC(=O)[C@H](CC(N)=O)NC(=O)[C@H](C)NC(=O)[C@H](CO)NC(=O)[C@H](C)NC(=O)[C@H](CO)NC(=O)[C@@H]1CCCN1C(=O)[C@H](Cc1ccccc1)NC(=O)[C@H](C)NC(=O)[C@H](CO)NC(=O)[C@@H]1CCCN1C(=O)[C@H](Cc1ccccc1)NC(=O)[C@@H](NC(=O)[C@H](CC(=O)O)NC(=O)[C@@H](N)CO)[C@@H](C)O)C(=O)N[C@@H](CCCNC(=N)N)C(=O)N[C@@H](CO)C(=O)O", "system": "50% mouse plasma", "conditions": "60 min", "endpoint": "remaining peptide", "value": "1.02%"}
{"Structure (SMILES)": "CC[C@H](C)[C@H](NC(=O)[C@@H](NC(=O)[C@@H](NC(=O)[C@@H](NC(=O)[C@@H](N)CCCCN)C(C)C)C(C)C)C(C)C)C(=O)N[C@H](C(N)=O)[C@@H](C)O", "assay": "LC-MS", "system": "pronase digest", "conditions": "200 µM, 10 min, pH 7.5, 37 °C, together with: pronase 2.5 µg/mL", "endpoint": "remaining intact peptide", "value": "91%"}
{"Structure (SMILES)": "C=CCN1CCC23c4c5ccc(OC(=O)c6ccccc6)c4OC2C(=O)CCC3(O)C1C5 (stereo not drawn)", "system": "rat plasma", "conditions": "1 h, no inhibitor", "endpoint": "remaining compound", "value": "0%"}
{"Structure (SMILES)": "C#Cc1c(F)ccc2cc(O)cc(-c3ncc4c(N5CC6CCC(C5)N6C(=O)OC(C)OC(=O)C5CCOCC5)nc(OC[C@@]56CCCN5C[C@H](F)C6)nc4c3F)c12 (stereo partly drawn)", "system": "simulated gastric fluid", "conditions": "1 µM, 30 min, 37 °C", "endpoint": "remaining prodrug", "value": "109%"}
{"Structure (SMILES)": "C=CCN1CCC23c4c5ccc(OC(=O)c6ccc(N)cc6)c4OC2C(=O)CCC3(O)C1C5 (stereo not drawn)", "system": "human plasma", "conditions": "4 h", "endpoint": "remaining compound", "value": "88.9% and 88.3% and 88.8%"}
{"Structure (SMILES)": "CSCC[C@H](NC(=O)[C@H](CCCNC(=N)N)NC(=O)[C@H](CCCNC(=N)N)NC(=O)[C@H](CCCCN)NC(=O)[C@H](C)NC(=O)[C@H](CCCNC(=N)N)NC(=O)CNC(=O)[C@@H](N)[C@@H](C)O)C(=O)N[C@@H](CCC(N)=O)C(=O)N[C@@H](Cc1ccc(O)cc1)C(=O)N[C@@H](CC(N)=O)C(=O)N[C@@H](CCCNC(=N)N)C(=O)N[C@@H](CCCNC(=N)N)C(N)=O", "assay": "HPLC peak area", "system": "50% human serum", "conditions": "100 µM, 24 h, pH 7.4, 37 °C", "how to read": "baseline: 0 h", "endpoint": "remaining peptide", "value": "5.4% and 4.09% and 6.6%"}
{"Structure (SMILES)": "C#Cc1c(F)ccc2cc(O)cc(-c3ncc4c(N5CC6CCC(C5)N6C(=O)OC(C)OC(=O)COCCOC)nc(OC[C@@]56CCCN5C[C@H](F)C6)nc4c3F)c12 (stereo partly drawn)", "system": "simulated gastric fluid", "conditions": "1 µM, 30 min, 37 °C", "endpoint": "remaining prodrug", "value": "104%"}
{"Structure (SMILES)": "Cc1nnc(-c2ccc(CC(=O)NCCCC[C@H](NC(=O)c3ccc(OCc4ccc(B(O)O)cc4)c(-c4nc5ccccc5c(=O)[nH]4)c3)C(=O)NCC(=O)NCC(=O)NCC(=O)N[C@@H](Cc3ccccc3)C(=O)N[C@@H](Cc3ccccc3)C(=O)O)cc2)nn1", "assay": "UPLC-MS/MS", "system": "human serum", "conditions": "100 µM, 3.5 h, 37 °C", "endpoint": "remaining compound", "value": "78.7%"}
{"note": "Repeated from above:"}
{"Structure (SMILES)": "C=CCN1CCC23c4c5ccc(OC(=O)c6ccccc6)c4OC2C(=O)CCC3(O)C1C5 (stereo not drawn)", "system": "rat plasma", "conditions": "1 h, no inhibitor", "endpoint": "remaining compound", "value": "0%"}
